Published values gathered from unrelated publications.
“And” joins repeats or separate records; there may be more than shown.
BTK: Tyrosine-protein kinase BTK (BTK, Homo sapiens, UniProt Q06187)

SMILES	target	assay	setting	how to read	quantity	result
O=c1c(-c2ccc(Cl)c(CN3CCOCC3)c2)coc2cc(O)ccc12	BTK	enzyme activity, inhibitor	1 µM		remaining activity	96%
CN1CCN(Cc2ccc(NC(=O)c3cccc(C#Cc4cnc(N)c5ncccc45)c3)cc2C(F)(F)F)CC1	BTK	cell-free assay, competition with immobilised ligand	0.5 µM		remaining binding	54%
Cc1cccc(O[C@H]2CCC[C@@H](C(C)CNCc3ccncc3)C2)c1 (relative stereo)	BTK	kinase activity, kinome panel screening	10 µM		inhibition	-2%
CC(=O)N1c2ccc(-c3ccc(CNC(=O)c4cn5cc(-c6cnc(N)nc6)nc(N6CCOCC6)c5n4)cc3)cc2CC[C@@H]1C	BTK	KINOMEscan	10 µM		remaining binding	69%
Cc1cnc2nc1Nc1cccc(c1)COC/C=C/COCc1cc(ccc1OCCN1CCOCC1)N2	BTK		concentration not given		percent of control	50%
COc1ccc(NC(=O)Nc2ccc3c(c2)C(=O)N(C(C)CO)CC(C)C(CN(C)Cc2ccc4c(c2)OCO4)O3)cc1 (stereo not drawn)	BTK	binding, competition with immobilised ligand	10 µM		remaining binding	94%
CNC(=O)C1CCN(c2cc(C)c(F)cc2NC(=O)c2ccc(-c3cc(O)ccc3C)c(C)c2)CC1	BTK	binding, competition with immobilised ligand	1 µM		remaining binding	93%
COc1c(Cl)cccc1Nc1c(-c2ccncc2C#C[C@@]2(C)CCCN2C(=O)/C=C/CN(C)C)[nH]c2c1C(=O)NCC2	BTK	binding, competition with immobilised ligand	3 µM		remaining binding	50%
CNC(=O)C[C@H](Cc1ccc(C#N)cc1)NC(=O)c1cc(-c2ccc(CN[C@H](C)c3ccc(C)cc3)o2)ccc1Cl	BTK	enzyme activity, inhibitor	1 µM		activity vs control	98%
Cc1nc2c(F)cc(-c3nc(Nc4ccc(CNC(=O)CCCCCCC(=O)NO)cc4)ncc3F)cc2n1C(C)C	BTK (Homo sapiens, UniProt Q06187, R28H)	enzyme activity, inhibitor	1 µM		inhibition	14%
O=C=[N][Ru-4]123([n]4c5ccc(O)cc5c5c6c(c7cc(F)c[n+]1c7c54)C(=O)NC6=O)[S+]1CC[S+]2CC[S+]3CC1 (stereo not drawn)	BTK	enzyme activity	100 nM, human enzyme, with: 10 µM ATP	reference: untreated	remaining activity	99%
[2H]c1cc(C)c(NC(=O)c2cnc(Nc3cc(N4CC[C@H](N)C4)nc(C)n3)s2)c(Cl)c1	BTK	enzyme activity, inhibitor, mobility shift	1 nM		inhibition	54%
Cc1cccc(-c2ccc3nc(NC(=O)C4CCOCC4)nn3c2)c1	BTK	enzyme activity, Dundee kinase panel	10 µM		remaining activity	59%
CN1CCN(Cc2ccc(-c3ccc(CO[C@H]4CCC[C@@H]4NC(=O)c4cc(-c5cnn(C)c5)cnc4N)cc3)cc2)CC1	BTK	enzyme activity, inhibitor	0.1 µM		inhibition	1%
CC1CCN(c2ccc(-c3n[nH]c(=O)c4cccnc34)cc2)CC1	BTK	cell-free assay, competition with immobilised ligand	10 µM		remaining binding	5.7%
Nc1nc(Nc2ccccc2)sc1C(=O)c1ccccc1	BTK	enzyme activity, inhibitor	10 µM		remaining activity	60%
Nc1ncc2c(n1)-c1c([nH]c3ccc(C4=CCOCC4)cc13)CCC2	BTK	binding, competition with immobilised ligand	1 µM		remaining binding	95%
COCC12C(=O)NC3C4(C(OC)CC1O)C1CC5(O)C(OC)C(O)C(OC(C)=O)(C1C5OC(=O)c1ccccc1)C3(O)C(OC)C24 (stereo not drawn)	BTK	kinase activity, inhibitor, ProQinase kinase profiling	25 µM	reference: control	remaining activity	108% and 101%
c1ccc2c(Nc3cc(C4CCC4)[nH]n3)nc(Nc3ccc4nc[nH]c4c3)nc2c1	BTK	enzyme activity, inhibitor	0.25 µM		remaining activity	14%
C=C1CCCCCCCCCC(CO)C1=O (stereo not drawn)	BTK	cell-free assay, competition with immobilised ligand	10 µM		remaining binding	91%
Cc1ccc(C)c(-c2ccc3nc(NC(=O)C4CCCCC4)nn3c2)c1	BTK	enzyme activity, Dundee kinase panel	10 µM		remaining activity	61%
CCN1CCN(Cc2ccc(C(=O)Nc3ccc(C)c(NCc4cnc5[nH]ccc5c4OC)c3)cc2C(F)(F)F)CC1	BTK	binding, competition with immobilised ligand	1 µM		remaining binding	8.8%
NC(=O)C[C@H]1CCc2sc3ncnc(O[C@H]4CC[C@H](N5CCOCC5)CC4)c3c21	BTK	enzyme activity, inhibitor	10 µM		inhibition	8%
C=CC(=O)Nc1cccc(-c2cnc3[nH]cc(C(=O)NC(C)(C)C)c3n2)c1	BTK	kinase activity	0.1 µM		inhibition	28% and 31%

For quick reference, copied from above:
SMILES	target	assay	setting	how to read	quantity	result
Cc1ccc(C)c(-c2ccc3nc(NC(=O)C4CCCCC4)nn3c2)c1	BTK	enzyme activity, Dundee kinase panel	10 µM		remaining activity	61%
CCN1CCN(Cc2ccc(C(=O)Nc3ccc(C)c(NCc4cnc5[nH]ccc5c4OC)c3)cc2C(F)(F)F)CC1	BTK	binding, competition with immobilised ligand	1 µM		remaining binding	8.8%
NC(=O)C[C@H]1CCc2sc3ncnc(O[C@H]4CC[C@H](N5CCOCC5)CC4)c3c21	BTK	enzyme activity, inhibitor	10 µM		inhibition	8%
